Published values collected from several papers.
Every numbered part comes from another study and shows a few of its results, in no order.

Sample 1 — technique: protein binding microarray; molecule type: double-stranded DNA, one strand shown; matrix: in vitro; concentration: not given; reference: not given; reading: higher = stronger binding
Target: Histone acetyltransferase KAT6A, winged helix 1, GST fusion (KAT6A, Homo sapiens, UniProt Q92794, residues 1-85)
Setting: 8-mer, flanks averaged, mean of 2 arrays, mostly near background
Construct (chain): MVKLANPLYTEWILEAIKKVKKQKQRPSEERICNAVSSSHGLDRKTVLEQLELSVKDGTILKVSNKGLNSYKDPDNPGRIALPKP
For `AGGCATCC`, the E-score was -0.216.
`AGAGCTTC` gave an E-score of -0.193.
With `GAAACCAA` the E-score was -0.121.
For `GCAGAAGA`, the E-score was -0.177.
The E-score of `GTGCAAGA` is reported as -0.0167.
With `GTTGTAGA` the E-score was -0.0648.
The E-score of `AGCAGGCA` is reported as -0.0698.
The E-score of `ACACTTAC` is reported as 0.00606.
For `ACTATACT`, the E-score was 0.02.
`CCCGTAAG` has an E-score of 0.177.
The E-score of `ACTTATAC` is reported as -0.0212.
For `AAGTCGGT`, the E-score was -0.143.
For `GGAACGGA`, the E-score was 0.233.
For `TCATGCCA`, the E-score was -0.252.
For `CACAGTTA`, the E-score was -0.0324.
For `GCGTCACA`, the E-score was 0.0406.

Sample 2 — technique: RNA Bind-n-Seq; molecule type: RNA; matrix: in vitro; concentration: 365 nM; reference: no-protein control; reading: higher = stronger binding
Target: RNA binding protein fox-1 homolog 2, RRM domain, GST-SBP tag (RBFOX2, Homo sapiens, UniProt O43251-10, residues 100-194)
Setting: natural RNA segment, single round, ends assumed
Target sequence (chain): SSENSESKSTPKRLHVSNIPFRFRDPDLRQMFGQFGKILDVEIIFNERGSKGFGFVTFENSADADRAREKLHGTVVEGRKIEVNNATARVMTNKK
`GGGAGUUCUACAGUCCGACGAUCCAGAAUAUAGGGUUGUUCUUUGGGAAAAAGAGUAUAAGAACAUAAUUUCUUUGUCCUAGACUUUACAAAUUUUUCAAAACUGUAACUUUAUUUUAAACUUGUGUAUCACAUGGAAUUCUCGGGUGCCAA`: “RBNS enrichment (R)” 0.467.
For `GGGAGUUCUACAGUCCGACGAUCGUUGUCUGUAAAUUGGAUGAAAAGAGCUCUAAUGCCUUUCAGGCUCUUAGAAGCCAUAGAUUUGGACAAGCCCAGCAAGAUGGGUGUCCUUCCAGGCCUCUUCCCCUUUCUGGAAUUCUCGGGUGCCAA`, “RBNS enrichment (R)” read 0.964.
For `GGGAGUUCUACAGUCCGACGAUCCCCGGAUGGCAGGGCAUGUUUCUGUUUUGGUGUCUCACUUUCCUCCCAGCGUGACUUAUUUGGGGAUUCCUCAGGGCCUACUGGAAUGUGACUGCCCACUGCCCAGCUGCUGGAAUUCUCGGGUGCCAA`, “RBNS enrichment (R)” read 2.59.
Under “RBNS enrichment (R)”, `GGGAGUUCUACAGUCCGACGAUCCACAACGUCUCUACUGUGCCUAUUACCAAGCGAGUGUUUGUAACCACAUACUUUUGGAAUCCACUGCAAAAUUUUCUACUGGCCAAGUUCAAGUGAGCAAGCCAUGCCCCUGGAAUUCUCGGGUGCCAA` is recorded as 0.587.
`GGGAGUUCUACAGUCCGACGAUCGGAGAGGUAGAAGUUCCAGCCCAGGCAGAUGUGCACAAACAGAGCCCCCGCGUACAGGUCCAGCUGCGGAGGGAGAGAGCCUUGUGUGGGACUGUUAUUCCCAGGGCUCCUGGAAUUCUCGGGUGCCAA` — result for “RBNS enrichment (R)”: 0.658.
For `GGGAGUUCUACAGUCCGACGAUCAUCCUGACAUUGUAUGCUACGAGAACUCUUCUGAUGAUGGAAUUUCGAUUAAAGUGCACUGAAAGAUGCUUCUGUGUUUGUCUUCCUCAUGUUCUGGGGCUGAAGGUGGGUGGAAUUCUCGGGUGCCAA`, “RBNS enrichment (R)” read 1.14.
`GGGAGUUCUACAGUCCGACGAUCUCGGUUCCCGAGGCCUGGCCUUUCCCUCUCCUGCUGAGAACCAGAACCCACCAGGAGCACCACAGAGUCCUCCUCUUGGAAGGCAGAACUCCCUGAAAUCUGGAAUCAGGUGGAAUUCUCGGGUGCCAA` — result for “RBNS enrichment (R)”: 0.316.
Under “RBNS enrichment (R)”, `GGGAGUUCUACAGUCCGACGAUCAGUUCCACUGGAAUUUGACAGUUGUCUCUACAGUCAUGCAACUCGAAGUAGAAAAGAGUGCUGGACAUAGGAAGGGGGUGCUUGGUUUGAGGGGUUAAUGUGAGGCCUUUUGGAAUUCUCGGGUGCCAA` is recorded as 0.848.
`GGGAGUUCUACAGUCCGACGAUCUGGGGUGCACCUGUCCAAUAGGCGUAGCUAUCCGGACAGAGCACGUUUGCAGAAGGGGGUCUCUUCUUCCAGGUAGCUGAAAGGGGAAGACCUGACGUACUCUGGUUAGGUGGAAUUCUCGGGUGCCAA` — result for “RBNS enrichment (R)”: 0.583.
For `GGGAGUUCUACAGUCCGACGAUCUCUUGUUUAAAAGAUGUCUGAAACCUUUUUAUGGCGUGUUUGUAUUAAAAAUAAAGUAUAGAGGCCAGAGAGUGCUUCCUUUUGUUCACCCUGUUGUCCUUACCACAUUAUGGAAUUCUCGGGUGCCAA`, “RBNS enrichment (R)” read 0.326.
`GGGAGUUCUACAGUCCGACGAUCGGAUCAUAGCUUCCUGUCCCCACCUAUUUUUGUAAAUAAAGUUUUAUGGGAACACAACCACAUCCAUUAUGCGUUGUCCGUGACUCCUUUCUUUCUGUAAUGGCACAAUGUGGAAUUCUCGGGUGCCAA`: “RBNS enrichment (R)” 0.319.
For `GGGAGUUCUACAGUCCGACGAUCAUGCUGCCGGCAAGGAGAGUGCAGCAAGAGAGAAAAUCCUCAGGGCUGAACCUGAGAUCUUGGAACUUGAGAGUAAGAGCAAUAAGAUUGUCCAGAGUGUCAUCCAGACAUGGAAUUCUCGGGUGCCAA`, “RBNS enrichment (R)” read 0.511.

Sample 3 — technique: protein-binding microarray; molecule type: double-stranded DNA, one strand shown; matrix: in vitro; concentration: 0.8 µM; setting: whole 60-bp probe, no competitor; reading: higher = stronger binding
Target: Centromere-binding protein 1, full length, N-terminal tag (CBF1, Saccharomyces cerevisiae, UniProt P17106, residues 1-351)
Sequence of UniProt P17106 (whole entry, looked up): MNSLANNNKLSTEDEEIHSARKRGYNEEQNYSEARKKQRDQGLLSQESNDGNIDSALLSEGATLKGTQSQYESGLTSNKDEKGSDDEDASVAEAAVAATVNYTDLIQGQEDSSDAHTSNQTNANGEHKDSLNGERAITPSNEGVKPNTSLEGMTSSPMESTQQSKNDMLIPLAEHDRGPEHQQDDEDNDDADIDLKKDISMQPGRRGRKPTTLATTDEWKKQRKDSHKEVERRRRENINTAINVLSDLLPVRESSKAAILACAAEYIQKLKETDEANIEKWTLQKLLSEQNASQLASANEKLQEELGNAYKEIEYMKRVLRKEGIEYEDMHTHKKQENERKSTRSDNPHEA
With `GAAGTTAGATCGATTCCCGTGTCTGACAGTGTTTAGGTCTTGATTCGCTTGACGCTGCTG` the fluorescence intensity was 546 a.u.
With `CTATACGATTATATTGACGTGATAAAAAGATTATTCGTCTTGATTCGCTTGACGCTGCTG` the fluorescence intensity was 583 a.u.
`GAAAAAAAAACCCATCATGATATTCTACGCTTTTAGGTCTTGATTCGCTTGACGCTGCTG` gave a fluorescence intensity of 534 a.u.
The fluorescence intensity of `GAAAATGCTTTAAGGCACGCCGCTTAACCTTTTTAGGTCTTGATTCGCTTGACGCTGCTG` is reported as 476 a.u.
The fluorescence intensity of `GAAAGCCATAAGAGTTTCGTGATGGATGTAAGGTAGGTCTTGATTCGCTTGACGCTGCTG` is reported as 536 a.u.
`TGTACGAAGCTATGTGACCTGACTATAGTAGTTAGGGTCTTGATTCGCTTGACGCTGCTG` gave a fluorescence intensity of 583 a.u.
For `CTAAAATAGACAATCAACGTGATGGGGTTTAAATTCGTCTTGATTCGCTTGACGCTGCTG`, the fluorescence intensity was 1000 a.u.
With `CCTAACTACTATACACGCCTGGTATAGCTTCGTACAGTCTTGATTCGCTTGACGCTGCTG` the fluorescence intensity was 516 a.u.
For `CCTAACTACTATATGCACCTGCAATAGCTTCGTACAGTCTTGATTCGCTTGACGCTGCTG`, the fluorescence intensity was 538 a.u.
With `GAACCCTCTCCGTGGCGGGTGACCTCGGGCGCATAGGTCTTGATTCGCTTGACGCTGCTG` the fluorescence intensity was 511 a.u.
`GAATTGGTGTTAAATGACCAGGTGAGCCTCACTTAGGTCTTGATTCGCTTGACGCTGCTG` has a fluorescence intensity of 648 a.u.
For `CTAAGGAAAAAACCCGTGATTACTAAAGGCATATTCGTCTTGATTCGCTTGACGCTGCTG`, the fluorescence intensity was 1800 a.u.
The fluorescence intensity of `CTAGTAACTACCAATCTCGTGAGATTTTTCATATTCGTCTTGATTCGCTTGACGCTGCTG` is reported as 578 a.u.
`CTAGTCCCGAATCGGCACATGAGCGTCATTCTATTCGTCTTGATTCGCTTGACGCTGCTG` has a fluorescence intensity of 630 a.u.
With `CCTAACTACTATAGTCATCATATATAGCTTCGTACAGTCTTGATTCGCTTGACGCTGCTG` the fluorescence intensity was 516 a.u.
`CTAAGCAGTTTCCATCAGCTATTTATGTTACGATTCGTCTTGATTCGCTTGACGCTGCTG` has a fluorescence intensity of 529 a.u.
For `CTACTATGAATTTCACACCATATCCTTATCTAATTCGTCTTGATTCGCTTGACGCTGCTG`, the fluorescence intensity was 532 a.u.

Sample 4 — technique: RNA Bind-n-Seq; molecule type: RNA; matrix: in vitro; concentration: 200 nM; setting: whole 134-nt RNA, ends assumed; together with: 150 mM LiCl; reference: input library; reading: higher = stronger binding; all molecules: 7-deaza-guanosine replaces G
Target: Fragile X messenger ribonucleoprotein 1, C-terminal low-complexity region (Fmr1, Mus musculus, UniProt P35922)
`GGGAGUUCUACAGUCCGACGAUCACCAUGCAGGUGGGCAUCUUUGGGAAGUGGGGCAAGGGGGGUAUAGGGAGGGGGGUAACACUUUGGGAACAGGUGGUCCCAGGUCGUUUCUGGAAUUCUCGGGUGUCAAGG` has a log2 enrichment of 0.871.
The log2 enrichment of `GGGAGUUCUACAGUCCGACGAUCCAAGUCCUGUGCUACACAUCGUAUGUACCGAAUCGGGAAAAGGAAAAGGGAAAAGGAAAGUAUUAUGUUACGCCGUUCGGAUCUGCACUUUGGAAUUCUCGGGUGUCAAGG` is reported as -1.6.
For `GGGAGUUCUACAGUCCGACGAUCUUAGGUGGCUCCAGGAUGUAUUUAACGUGCCCUUGGUCAUCCAGAUGACGGAUGACGAGAAGUAUCUGUGGAAGGACCUGACCCUGGACCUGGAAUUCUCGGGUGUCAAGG`, the log2 enrichment was -1.54.
The log2 enrichment of `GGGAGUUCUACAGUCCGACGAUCGGCUGCUGGAGUGCCGUGAGCAGGCCGCGGGAACGUCGCCGUCACCUUGUCUCGGGGCCUCGGCGCUGCUUCCCGCCAAAACACGUUUACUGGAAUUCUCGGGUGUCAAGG` is reported as -0.755.
With `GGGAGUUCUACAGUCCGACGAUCUCCUGUGCUACACAUCGUAUGUACCGAAUCGGGGUUUUUGGGGAAAAAAAGGGGAGGGGAAAGUAUUAUGUUACGCCGUUCGGAUCUGCAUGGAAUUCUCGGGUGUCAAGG` the log2 enrichment was -0.793.
`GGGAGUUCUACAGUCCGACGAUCCUCAAGUCCUGUGCUACACAUCGUAUGUACCGAAUCGGCCCGGCCCGGCCCGGGAAAGUAUUAUGUUACGCCGUUCGGAUCUGCACUUCCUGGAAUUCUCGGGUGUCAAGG` gave a log2 enrichment of 0.479.
For `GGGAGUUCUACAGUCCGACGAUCGUCCUGUGCUACACAUCGUAUGUACCGAAUCGGGGAAAAAGGGAAAAAGGGAAAAAGGGAAAGUAUUAUGUUACGCCGUUCGGAUCUGCAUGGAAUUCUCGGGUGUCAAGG`, the log2 enrichment was 0.404.
With `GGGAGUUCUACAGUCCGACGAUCGUCCUGUGCUACACAUCGUAUGUACCGAAUCGGUUUUUUUGGAAAAAAAGGUUUUUGGAAAGUAUUAUGUUACGCCGUUCGGAUCUGCACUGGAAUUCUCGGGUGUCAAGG` the log2 enrichment was -3.26.
With `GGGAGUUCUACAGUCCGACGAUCCUGUGCUACACAUCGUAUGUACCGAAUCGGGGUUUUUUUGGGGUUUUUUUGGUUUUUUUGGGAAAGUAUUAUGUUACGCCGUUCGGAUCUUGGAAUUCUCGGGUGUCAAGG` the log2 enrichment was 1.08.
The log2 enrichment of `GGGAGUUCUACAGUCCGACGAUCCCUGUGCUACACAUCGUAUGUACCGAAUCGGGUUUUUUGGGUUUUUUGGGUUUUUUGGGGAAAGUAUUAUGUUACGCCGUUCGGAUCUGCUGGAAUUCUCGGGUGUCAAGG` is reported as -1.5.
`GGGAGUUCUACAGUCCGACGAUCCUCAAGUCCUGUGCUACACAUCGUAUGUACCGAAUCGGUGGAGGUUUUUUUGGAAAGUAUUAUGUUACGCCGUUCGGAUCUGCACUUCCAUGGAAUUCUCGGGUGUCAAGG` gave a log2 enrichment of 0.259.
